Assay results of several laboratories.
Each line is one published result; not all experiments were run side by side.
Target: Sodium-dependent serotonin transporter (SLC6A4, Homo sapiens, UniProt P31645)
Sequence of UniProt P31645 (whole entry, looked up): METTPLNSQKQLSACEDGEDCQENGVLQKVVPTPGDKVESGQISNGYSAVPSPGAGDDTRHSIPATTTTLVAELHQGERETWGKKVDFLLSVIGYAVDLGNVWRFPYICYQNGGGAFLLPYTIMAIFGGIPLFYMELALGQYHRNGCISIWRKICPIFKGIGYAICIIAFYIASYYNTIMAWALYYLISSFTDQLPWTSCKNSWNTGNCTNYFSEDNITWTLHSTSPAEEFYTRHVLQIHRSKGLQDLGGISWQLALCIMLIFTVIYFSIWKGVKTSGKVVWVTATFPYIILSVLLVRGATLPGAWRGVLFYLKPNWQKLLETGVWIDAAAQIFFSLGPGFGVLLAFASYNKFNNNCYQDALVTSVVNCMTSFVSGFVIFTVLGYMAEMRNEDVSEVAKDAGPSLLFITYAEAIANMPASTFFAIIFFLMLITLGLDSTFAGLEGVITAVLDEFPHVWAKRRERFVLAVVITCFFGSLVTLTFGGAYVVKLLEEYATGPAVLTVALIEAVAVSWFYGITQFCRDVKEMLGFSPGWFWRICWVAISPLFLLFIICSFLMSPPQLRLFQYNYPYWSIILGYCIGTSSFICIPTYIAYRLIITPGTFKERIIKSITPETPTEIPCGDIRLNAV

`C/C(=N\OCCCN1CCCCC1)c1ccc(C(F)(F)F)cc1` has an inhibition of 66.4% (uptake, inhibitor; 10 µM).
With `Cc1sc2c(c1C)C(c1ccc(Cl)cc1)=NC(CC(=O)OC(C)(C)C)c1nnc(C)n1-2` (centres unmarked) the inhibition was -19% (ligand displacement, radioligand; 1 µM).
`C[C@H](NCc1ccc(-c2ccc(C(F)(F)F)cc2)cc1)C(N)=O` has an inhibition of -3% (radioligand binding, SafetyScreen panel; 1 µM, added: 0.40 nM [3H]Paroxetine).
`CCc1nnc(-c2c(OC)cc(-c3cnc4cc(-c5cnn(C)c5)ccn34)cc2OC)o1` has a remaining binding of 104% (antagonist radioligand, radioligand binding; 10 µM, SafetyScreen44 5-HT transporter mean; lower = stronger displacement).
The inhibition of `CN[C@@H]1[C@H](O)[C@H](NC)[C@H]2O[C@]3(O)[C@H](O[C@@H]2[C@H]1O)O[C@H](C)C[C@H]3NC(=O)Cc1cc(Cl)ccn1` is reported as -10% (ligand displacement, radioligand; 10 µM).
For `CCCO[C@H]1[C@H](O)[C@@H](N)[C@@H](O[C@H]2[C@H](O[C@@H]3O[C@H](CO)[C@@H](O[C@H]4O[C@@H](CN)[C@@H](O)[C@H](O)[C@H]4N)[C@H]3O)[C@@H](O)[C@H](N)C[C@@H]2N)O[C@@H]1CO`, the specific binding was 5% (radioligand binding; 10 µM, 1% DMSO).
`CCOC(=O)[C@](CC)(CCCSCCOCCOCCNC(=O)c1ccc(-c2c3ccc(=N)c(S(=O)(=O)O)c-3oc3c(S(=O)(=O)O)c(N)ccc23)c(C(=O)O)c1)NC(=O)c1ccc(C2CC2)c(Cc2ccc(F)cc2)n1` has an inhibition of -8% (ligand displacement, radioligand; 10 µM).
The inhibition of `CS(C)(=O)=Nc1ccc(-c2ccc(-c3nc4cc(O[C@@H]5CO[C@H]6[C@@H]5OC[C@H]6O)[nH]c4cc3F)cc2)cc1` is reported as 2% (ligand displacement, radioligand; 10 µM).

Repeated from above:
`C[C@H](NCc1ccc(-c2ccc(C(F)(F)F)cc2)cc1)C(N)=O` has an inhibition of -3% (radioligand binding, SafetyScreen panel; 1 µM, added: 0.40 nM [3H]Paroxetine).
